Published values gathered from unrelated publications.
Every numbered part comes from another study and shows a few of its results, in no order. Changes are numbered by the printed parent chain.

Sample 1 — target: CCNE1, cyclin fold, Cln2 fusion (human); method: yeast growth competition, sequencing; medium: yeast; setting: weak parent motif; relative to: not given; direction: higher = stronger binding; endpoint: normalised enrichment score
Starting sequence: MASTL docking peptide (human); PMIAKNLMCELDE
L7T: -0.329
M8G: 0.00127
A4N: 0.188
L7Q: -0.382
M8E: 0.124
C9F: 0.377
N6E: -0.207
E10K: 0.216
L11G: 0.19
I3H: -0.00917
M2S: 0.244
C9S: 0.148
N6M: 0.499
L11I: 0.0845
M2K: 0.229
I3T: 0.0797
L7R: 0.299
D12A: 0.138

Sample 2 — method: protein binding microarray; form: double-stranded DNA, one strand shown; medium: in vitro; tested at: not given; relative to: not given; direction: higher = stronger binding; endpoint: E-score
Target: Histone acetyltransferase KAT6A, both winged helices, GST fusion (KAT6A, Homo sapiens, UniProt Q92794, residues 1-181)
Setting: 8-mer, flanks averaged, mean of 2 arrays, mostly near background
Residues (chain): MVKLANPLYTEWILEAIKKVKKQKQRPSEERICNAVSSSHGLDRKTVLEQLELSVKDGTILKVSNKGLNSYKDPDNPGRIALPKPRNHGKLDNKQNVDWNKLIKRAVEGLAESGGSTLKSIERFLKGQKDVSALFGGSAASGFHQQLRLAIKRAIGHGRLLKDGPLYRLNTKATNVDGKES
CCCTAGTA: 0.032
ATAGGACA: -0.0685
CGGATCGC: 0.193
CTAGATCC: -0.13
AGTGCTTG: -0.0188
CGGTTCTC: 0.141
AATAACAA: -0.142
ACGAGACT: -0.131
ACCCGGCA: 0.223
AATACCTC: -0.0712
AGAACGAG: -0.148
AATATAAT: -0.0339
CAGTGCGC: 0.236
GGATCTCA: -0.0296
AGAACGTG: 0.0622
CAGAATGA: -0.0276
AGCTTACT: -0.139
GTCTATAA: -0.163
ACCACGTC: -0.0978
CGTCCCGA: 0.169
CGTTACAG: -0.0614
ATGGGGTC: -0.0695
AAGAATCT: -0.175
GCGATGTA: 0.105
AATAGATG: -0.091

Sample 3 — method: RNA Bind-n-Seq; form: RNA; medium: in vitro; tested at: not given; relative to: input RNA pool; direction: higher = stronger binding; endpoint: bound/input enrichment
Target: RING finger protein unkempt homolog, zinc fingers 1-6, GST-SBP tag (UNK, Homo sapiens, UniProt Q9C0B0, residues 30-357)
Setting: RNA with constant flanks, human and mouse sites, ends assumed
Construct (chain): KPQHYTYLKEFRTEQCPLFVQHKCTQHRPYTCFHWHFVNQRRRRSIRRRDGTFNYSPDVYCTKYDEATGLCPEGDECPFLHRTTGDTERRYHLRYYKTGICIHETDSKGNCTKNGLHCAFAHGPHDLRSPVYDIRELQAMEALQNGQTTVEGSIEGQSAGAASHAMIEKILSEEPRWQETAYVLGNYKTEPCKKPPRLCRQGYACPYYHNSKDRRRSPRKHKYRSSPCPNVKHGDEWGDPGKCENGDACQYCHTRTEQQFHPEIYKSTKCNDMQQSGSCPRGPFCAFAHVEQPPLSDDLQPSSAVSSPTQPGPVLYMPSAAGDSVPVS
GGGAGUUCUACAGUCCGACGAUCUAUGCCACCUUCUGUUAUUUUCAUCGCUUUUUGAAGAGAAACAUGGAAGAGACUUUUUUUUAUUUAUUCUCACGGUGCAGAAAUGACAACACUGUGCUAUAUCUACUACCCAGGGUCCCGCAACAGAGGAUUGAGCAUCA: 0.217 ratio
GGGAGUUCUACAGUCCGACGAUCGGCCCUGAGAAAGCCAAGACCCAGGACGUAAUCAACAUAGCUACCCAAGAGAUAAAUGCAGACCCUCCCGUUGCCCAAGAGGUUCAGGUGGCUGCAGAGAUCACAGGGGCGACUCCUCACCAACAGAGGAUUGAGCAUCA: 0.0497 ratio
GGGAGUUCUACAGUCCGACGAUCCUGCUGUUUUUUGCUUUGGGAUUGCUUAUCCAUUUUGUGUUCUUCGCUUCCAUCUUUGACAUUUAUUUUACAUCUCCUUUGGUUCAUGGAAUGACUCCCCAGUUUACACCUUUGCCUCCUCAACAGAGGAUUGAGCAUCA: 0.662 ratio
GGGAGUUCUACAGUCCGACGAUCGCAUUUGACGAUAAUGAUGGAUAUUGAUGGCAAGCAUGAGUGGAGGGACUGCAUUGAAGUGCCCGGAGUCCGCCUGCCCCGCGGCUACUACUUCGGCACCUCCUCCAUCACUGGGGAUCUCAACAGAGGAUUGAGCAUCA: 0.202 ratio
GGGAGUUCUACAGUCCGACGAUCACUACGCUGCGACAACGCAGAAAGCCAGUCUUCCACUUGUCCCAUGAGGAACGUGUCCAACAUAGAAAUAUUAAAGACCUUAAACUGGCCUUCAGUGAGUUCUACCUCAGUCUAAUCCUGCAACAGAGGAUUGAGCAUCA: 0.253 ratio
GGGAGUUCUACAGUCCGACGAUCUCCCCUUAUGACCAGGCAGCUUGGAUCUUAAAAGCAAGAGCGCUAACAGAAAUGGUAUACAUAGAUGAAAUUGAUGUAGAUCAGGAAGGAAUUGCAGAAAUGAUGCUGGAUGAAAAUGCUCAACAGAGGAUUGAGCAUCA: 0.569 ratio
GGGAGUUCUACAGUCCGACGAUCGGACAUGCCAGCGAGUGUGUAAAGAACGAGUUUGACAAACUCAUGUGCAACUGCAAACAUAACACAUACGGAGUUGACUGUGAAAAGUGCCUGCCUUUCUUCAAUGACCGGCCGUGGAGGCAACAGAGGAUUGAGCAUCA: 0.171 ratio
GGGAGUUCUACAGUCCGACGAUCCAAGAAACAGAAGUUGCCAUUGGCUACUGCUUGGCCUUUGAGCACAGAGAAAAAAUGUUUAAUAGACUGAGGAUCGAGUCAAAGGACUUACUGUUGUACAGCAAUGUUAAGAAGUGAACACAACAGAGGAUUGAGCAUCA: 0.181 ratio

Sample 4 — target: UBE2U UBC core domain (UniProt Q5VVX9); method: yeast two-hybrid; medium: yeast; setting: mostly zero background; relative to: not given; direction: higher = stronger interaction; endpoint: lacZ reporter activity
B1: TRIM74 RING domain (UniProt Q86UV6); chain SLLELEDWLQCPICLEVFKESLMLQCGHSYCKGCLVSLSYHLDTKVRCPMCWQVVDGSSSLP
B2: ARIH1 RING domain (UniProt Q9Y4X5); chain NTRSSAQDMPCQICYLNYPNSYFTGLECGHKFCMQCWSEYLTTKIMEEGMGQTISCPAHGCDILVDDNTVM
B3: RNF115 RING domain (UniProt Q9Y4L5); chain TQEQVDMGLECPVCKEDYTVEEEVRQLPCNHFFHSSCIVPWLELHDTCPVCRKSLNGEDSTR
B4: TRIM28 RING domain (UniProt Q13263); chain GAEALELLEHCGVCRERLRPEREPRLLPCLHSACSACLGPAAPAAANSSGDGGAAGDGTVVDCPVCKQQCFSKDIVE
B5: TRIM47 RING domain (UniProt Q96LD4); chain MDGSGPFSCPICLEPLREPVTLPCGHNFCLACLGALWPHRGASGAGGPGGAARCPLCQEPFPDGLQLR
B6: MDM2 RING domain (UniProt Q00987); chain TQDKEESVESSLPLNAIEPCVICQGRPKNGCIVHGKTGHLMACFTCAKKLKKRNKPCPVCRQPIQMIVLTYFP
B7: SHPRH RING domain (UniProt Q149N8); chain KTSGGVNPEPCPICARQLGKQWAVLTCGHCFCNECISIIIEQYSVGSHRSSIKCAICRQTTSHKEISY
B8: RMND5B RING domain (UniProt Q96G75); chain MKCWYHSVFACPILRQQTSDSNPPIKLICGHVISRDALNKLINGGKLKCPYCPMEQNPADGK
B9: UBE4B RING domain (UniProt O95155); chain KNARAEIDYSDAPDEFRDPLMDTLMTDPVRLPSGTIMDRSIILRHLLNSPTDPFNRQTLTESMLEPVPELKEQIQAWMREKQNSDH
Construct (chain): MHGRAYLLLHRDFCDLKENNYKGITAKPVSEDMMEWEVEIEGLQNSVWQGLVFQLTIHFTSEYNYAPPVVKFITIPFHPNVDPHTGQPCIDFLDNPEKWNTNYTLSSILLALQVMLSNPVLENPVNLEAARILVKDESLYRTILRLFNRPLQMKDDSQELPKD
B1 (TRIM74 RING domain): 0
B2 (ARIH1 RING domain): 7440
B3 (RNF115 RING domain): 0
KITELNPHLMCALCGGYFIDATTIVECLHSFCKTCIVRYLETNKYCPMCDVQVHKTRPLL (PCGF2 RING domain (UniProt P35227)): 17300
AAQLLEEKLTCAICLGLYQDPVTLPCGHNFCGACIRDWWDRCGKACPECREPFPDGAELR (TRIM65 RING domain (UniProt Q6PJ69)): 12500
B4 (TRIM28 RING domain): 2480
B5 (TRIM47 RING domain): 17500
B6 (MDM2 RING domain): 17400
B7 (SHPRH RING domain): 0
B8 (RMND5B RING domain): 16800
PLRRLQEEKLCKICMDRHIAVVFIPCGHLVTCKQCAEAVDRCPMCSAVIDFKQRVF (BIRC8 RING domain (UniProt Q96P09)): 0
B9 (UBE4B RING domain): 0

A few entries again (sample 4):
B1 (TRIM74 RING domain): 0
B5 (TRIM47 RING domain): 17500
B6 (MDM2 RING domain): 17400
B9 (UBE4B RING domain): 0
B8 (RMND5B RING domain): 16800
AAQLLEEKLTCAICLGLYQDPVTLPCGHNFCGACIRDWWDRCGKACPECREPFPDGAELR (TRIM65 RING domain (UniProt Q6PJ69)): 12500
B7 (SHPRH RING domain): 0
KITELNPHLMCALCGGYFIDATTIVECLHSFCKTCIVRYLETNKYCPMCDVQVHKTRPLL (PCGF2 RING domain (UniProt P35227)): 17300
